Measurements from different studies.
Lines come from different studies, so protocols differ. Values joined by “and” are separate records of one study, mostly repeats; a detail may differ. Numbers after ± are the reported error.
GAP50: Glideosome-associated protein 50 (GAP50, Plasmodium falciparum, UniProt Q8I2X3)
NADH dehydrogenase [ubiquinone] iron-sulfur protein 7, mitochondrial/NADH dehydrogenase [ubiquinone] iron-sulfur protein 2, mitochondrial/MT-ND1: NADH dehydrogenase [ubiquinone] iron-sulfur protein 7, mitochondrial/NADH dehydrogenase [ubiquinone] iron-sulfur protein 2, mitochondrial/MT-ND1 (Homo sapiens, UniProt O75251+O75306+P03886)
FFAR4: Free fatty acid receptor 4 (FFAR4, Homo sapiens, UniProt Q5NUL3)
TRPM8: Transient receptor potential cation channel subfamily M member 8 (TRPM8, Homo sapiens, UniProt Q7Z2W7)
TOP2A: DNA topoisomerase 2-alpha (TOP2A, Homo sapiens, UniProt P11388)
Kir3.1/Kir3.2: Kir3.1/Kir3.2 (Homo sapiens, UniProt P48051+P48549)
CXCR4: C-X-C chemokine receptor type 4 (CXCR4, Homo sapiens, UniProt P61073)
T1: riboswitch RNA yjdF aptamer (Bacillus subtilis); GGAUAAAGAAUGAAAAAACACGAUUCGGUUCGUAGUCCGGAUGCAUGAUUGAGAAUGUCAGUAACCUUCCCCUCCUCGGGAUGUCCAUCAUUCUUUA

CC(=O)Nc1ccc(O)cc1
chemical shift change (Bromodomain-containing protein 4 (BRD4, Homo sapiens, UniProt O60885); 19F NMR, measured: tyrosine 97; 1470 µM; relative to: free protein): -0.181 ppm

Cc1ccc2oc(-c3cc(NC(=O)Cc4ccccc4)ccc3Cl)nc2c1
koff (GAP50; binding, surface plasmon resonance; 1:1 binding model): 3.67 s⁻¹

NC(=O)NOCCCCCCCCCC[P+](c1ccccc1)(c1ccccc1)c1ccccc1.O=C([O-])C(F)(F)F
oxygen consumption rate (NADH dehydrogenase [ubiquinone] iron-sulfur protein 7, mitochondrial/NADH dehydrogenase [ubiquinone] iron-sulfur protein 2, mitochondrial/MT-ND1; complex I-dependent respiration, Seahorse XF96; HCT-116; 12.5 µM, 24 h; relative to: control): 38.5 ± 4.8%

COc1ccc(CCNc2cc(=O)[nH]c(=O)[nH]2)cc1
inhibition (FFAR4; antagonist, β-arrestin recruitment; CHO cells; 10 µM, added: 4 µM TUG-891): 14 ± 5%

COc1ccc(Cl)cc1NC(=O)Nc1cc(C)nc2ccccc12
remaining activity (TRPM8; antagonist; HEK293; 5 µM; relative to: control): 96.9 ± 5.34%

c1coc(-c2n[nH]cc2-c2ccnc3ccccc23)c1
log2 fold change (Serine/threonine protein kinase YCK2 (YCK2, Candida albicans, UniProt A0A1D8PKB4); kinase binding, MIB/MS competition; Candida albicans lysate; 1 µM; relative to: DMSO, negative = stronger binding): -0.44

Cc1ccc(C(=O)Nc2ccc3ccccc3c2)o1
peak current ratio Ip2/Ip1 (Otop1 (Mus musculus, UniProt Q80VM9); proton current, whole-cell patch clamp; cells expressing mouse Otop1; 50 µM, pH 6.0): 3.5 and 3.32 and 2.8 and 3.15 and 2.98

NCCCS(=O)(=O)O
normalised MST signal (Sodium- and chloride-dependent taurine transporter (SLC6A6, Homo sapiens, UniProt P31641, Y138A); binding, microscale thermophoresis; 244 nM, room temperature, added: 50 nM labelled protein; higher = more binding): -0.0204

O=c1nc(SCc2cc(F)cc(C(F)(F)F)c2)nc(SCc2csc3ccc(Cl)cc23)[nH]1
decatenated DNA (TOP2A; decatenation; 0.12 µM, replicate 1): 0%

CO[C@@H]1[C@@H]2OP(=O)(O)OC[C@H]2O[C@H]1n1c(Sc2ccc(Cl)cc2)nc2c(N)ncnc21
relative binding affinity (anti-cAMP antibody; antibody binding, competitive cAMP EIA; concentration not given, acetylated samples; relative to: EC50 cAMP over EC50 cpd, higher = stronger binding): 0.0003

CCCCCCCC/C=C\CCCCCCCC(=O)NCCc1ccc(O)c(O)c1
maximal open probability (Transient receptor potential cation channel subfamily V member 1 (Trpv1, Mus musculus, UniProt Q704Y3, S511T); ion current, agonist, whole-cell patch clamp; S511T; relative to: 3 mM 2-APB): 0.8 ± 0.12

CC[C@@H]1[C@H](F)C(=O)N[C@@H]1COc1nccc2cc(C(N)=O)c(OC)cc12
inhibition (Calcium/calmodulin-dependent protein kinase type 1D (CAMK1D, Homo sapiens, UniProt Q8IU85); ATP-site probe binding, ActivX profiling; THP-1 cell lysate; 0.2 mM, Lys1 site): 9.3%

O=c1cc(NCCc2cccc(Cl)c2)[nH]c(=O)[nH]1
activation (FFAR4; agonist, β-arrestin recruitment; CHO cells; 10 µM): 1 ± 1%

O=c1nc(SCc2cc(F)cc(C(F)(F)F)c2)nc(SCc2ccc3sccc3c2)[nH]1
linear DNA (TOP2A; DNA cleavage, competition with etoposide; 31.25 µM, added: etoposide 50 µM): 24.4% and 21.2%

O=[N+]([O-])c1cc(C(F)(F)F)ccc1NCc1ccsc1
ΔH (Endothelial PAS domain-containing protein 1, PAS-B domain (EPAS1, Homo sapiens, UniProt Q99814, N288A); binding, ITC, reverse mode): -7.31 ± 0.11 kcal/mol

CN(CCCCCCNC(=O)CNc1cccc2c1C(=O)N(C1CCC(=O)NC1=O)C2=O)Cc1cn(Cc2ccc(C(=O)NO)cc2)c2ccccc12.O=C(O)C(F)(F)F (stereo not drawn)
degradation (Polyamine deacetylase HDAC10 (HDAC10, Homo sapiens, UniProt Q969S8); degrader, western blot; MM1.S; 1 µM, 24 h): 85%

Nc1nc2c(ncn2[C@@H]2O[C@@H]3COP(=O)(O)O[C@H]4[C@@H](O)[C@H](n5cnc6c(=O)[nH]c(N)nc65)O[C@@H]4COP(=O)(O)O[C@H]3[C@H]2O)c(=O)[nH]1
ΔS (Cell cycle histidine kinase CckA, CA domain (Caulobacter vibrioides, UniProt Q9X688); binding, ITC; added: ADP 5 mM): 29.2 cal/mol/K

CCN(CCO)CCCC(C)Nc1ccnc2cc(Cl)ccc12 (stereo not drawn)
inactivation slope factor (Sodium channel protein type 5 subunit alpha (SCN5A, Homo sapiens, UniProt Q14524); sodium current, whole-cell patch clamp; 300 µM, without ATX-II): 6.27 mV/e-fold and 6.9 mV/e-fold and 6.7 mV/e-fold

O=C(c1ccccc1)c1ccc(CNCCCN2C(=O)c3ccccc3C2=O)cc1
Ki ratio (Sigma intracellular receptor 2 (TMEM97, Homo sapiens, UniProt Q5BJF2); radioligand binding; RT-4 cell membranes; relative to: sigma1 Ki over sigma2 Ki): < 0.03

O=C(CCCc1ccccc1)C(=O)NCCc1ccc(Oc2ccc(C(F)(F)F)cn2)cc1
probe-enriched protein abundance (Lipe (Mus musculus, UniProt P54310); inhibitor, measured: LIPS; mouse, WAT cytosol proteome; 10 µM; relative to: DMSO, lower = stronger inhibition): 308000 a.u.

CC(=O)Nc1ccc(-c2noc(C[C@H]3CCCN(Cc4cccc(F)c4C)C3)n2)cc1
kon (GAP50; binding, surface plasmon resonance; 1:1 binding model): 16200 M⁻¹ s⁻¹

CC(C)[C@H](CO)Nc1nc(Nc2cc(N)cc(Cl)c2)c2ncn(C(C)C)c2n1
remaining activity (TRPM8; antagonist; HEK293; 5 µM; relative to: control): 64.5 ± 5.34%

NN=C1NC(=O)C2(CCc3ccccc32)C(=O)N1 (stereo not drawn)
Emax (GABA-A receptor; alpha-1/beta-3/gamma-2 (Homo sapiens, UniProt P14867+P18507+P28472); 300 µM): -2%

Nc1ncnc2c1ncn2[C@@H]1O[C@H](COP(=O)(O)CP(=O)(O)OP(=O)(O)O)[C@@H](O)[C@H]1O
calcium influx (P2X purinoceptor 1 (P2RX1, Homo sapiens, UniProt P51575, S286A); calcium influx; 10 nM; relative to: ionomycin response): 0%

Nc1nc2c(ncn2[C@@H]2O[C@H](COP(=O)(O)O)[C@@H](O)[C@H]2O)c(=O)[nH]1
ΔG (GUK1 (Homo sapiens, UniProt Q16774, R44A); binding, ITC): -4.87 kcal/mol

O=C(COc1ccc(Cl)cc1Cl)Nc1cc(C2CC2)nn1CC(F)(F)F
Emax (Kir3.1/Kir3.2; thallium flux, activator; HEK293; relative to: standard compound): 74%

C=CC(=O)N1CCC(COCC(=O)N2CCN(c3nc(-c4cnc(N)nc4C(F)F)nc(N4CCOC[C@@H]4C)n3)CC2)CC1
remaining binding (Leukocyte tyrosine kinase receptor (LTK, Homo sapiens, UniProt P29376); KINOMEscan; 1 µM): 91%

O=C(COc1cccc(Cl)c1Cl)Nc1cc(C2CCC2)nn1CC(F)(F)F
Emax (Kir3.1/Kir3.2; thallium flux, activator; HEK293; relative to: standard compound): 34%

Nc1ncnc2c1ncn2C(C=O)OC(C=O)CO (stereo not drawn)
SART3 binding (SART3; co-immunoprecipitation; HEK293T expressing GFP-RMET; 25 µM, 3 days): decreased

NC(=O)NO
oxygen consumption rate (NADH dehydrogenase [ubiquinone] iron-sulfur protein 7, mitochondrial/NADH dehydrogenase [ubiquinone] iron-sulfur protein 2, mitochondrial/MT-ND1; complex I-dependent respiration, Seahorse XF96; HCT-116; 3000 µM, 24 h; relative to: control): 83.1 ± 5.77%

CCNc1cc(=O)[nH]c(=O)[nH]1
inhibition (FFAR4; antagonist, β-arrestin recruitment; CHO cells; 10 µM): 13 ± 2%

O=C1O/C(=C\c2cc(F)ccc2OCCN2CCOCC2)c2cc(Cc3cccc(F)c3)[nH]c(=O)c21
ligand efficiency (Dual specificity calcium/calmodulin-dependent 3',5'-cyclic nucleotide phosphodiesterase 1C, isoform PDE1C2 (PDE1C, Homo sapiens, UniProt Q14123); enzyme activity, inhibitor; added: 3H-cGMP substrate): 0.31

CCCCCNc1cc(=O)[nH]c(=O)[nH]1
agonist effect (FFAR4; β-arrestin recruitment; CHO; 10 µM; relative to: 30 µM TUG-891): 1%

NCc1ccccc1
kcat (Amine oxidase [flavin-containing] A (Maoa, Rattus norvegicus, UniProt P21396); substrate; pH 9.0): 0.55 ± 0.00267 s⁻¹

Cc1cc2nc3[nH]c(=O)[nH]c(=O)c3nc2cc1C
Kd (T1, riboswitch RNA yjdF aptamer (Bacillus subtilis); fluorescence titration; added: 380 nM lumichrome): 8 µM

Cc1[nH]c(N)nc1CCC(=O)c1ccccc1.Cl
Hill coefficient (Voltage-gated hydrogen channel 1 (HVCN1, Homo sapiens, UniProt Q96D96); proton current, inhibitor, inside-out patch clamp; Xenopus oocytes; dimeric channel): 1.28 ± 0.04

Cc1ccc(S(=O)(=O)NCc2ccc(CNC(=O)c3ccc([N+](=O)[O-])cc3)cc2)cc1
EC (CXCR4; binding, inhibitor, competitive binding; MDA-MB-231; added: biotinylated TN14003): 10 nM

NC(=O)NOCCCCCCCCCCCCCCCCCCCC[P+](c1ccccc1)(c1ccccc1)c1ccccc1.O=C([O-])C(F)(F)F
oxygen consumption rate (NADH dehydrogenase [ubiquinone] iron-sulfur protein 7, mitochondrial/NADH dehydrogenase [ubiquinone] iron-sulfur protein 2, mitochondrial/MT-ND1; complex I-dependent respiration, Seahorse XF96; HCT-116; 0.5 µM, 24 h; relative to: control): 63.6 ± 7.46%

O=c1cc(NCCc2ccccc2)[nH]c(=O)[nH]1
agonist effect (FFAR4; agonist, β-arrestin recruitment; CHO cells; 10 µM; relative to: 30 µM TUG-891): 2 ± 1%

COc1c(Nc2cc(C(F)(F)F)cc(C(F)(F)F)c2)c(=O)c1=O
Hill slope (CD209 antigen (CD209, Homo sapiens, UniProt Q9NNX6); binding, grating-coupled interferometry; Man(α1,2)Man-PEG3 chip): 2.8

CN1CCC(NCc2cccc(-c3ccc(S(=O)(=O)NCc4ccccc4)cc3)c2)CC1
koff (GAP50; binding, surface plasmon resonance; 1:1 binding model): 0.564 s⁻¹

Cc1cccc(C(=O)NCc2ccc(CNS(=O)(=O)c3ccccc3)cc2)c1
EC (CXCR4; binding, inhibitor, competitive binding; MDA-MB-231; added: biotinylated TN14003): 1000 nM

Some of these lines once more:
O=C(COc1cccc(Cl)c1Cl)Nc1cc(C2CCC2)nn1CC(F)(F)F
Emax (Kir3.1/Kir3.2; thallium flux, activator; HEK293; relative to: standard compound): 34%

Nc1ncnc2c1ncn2C(C=O)OC(C=O)CO (stereo not drawn)
SART3 binding (SART3; co-immunoprecipitation; HEK293T expressing GFP-RMET; 25 µM, 3 days): decreased

NC(=O)NO
oxygen consumption rate (NADH dehydrogenase [ubiquinone] iron-sulfur protein 7, mitochondrial/NADH dehydrogenase [ubiquinone] iron-sulfur protein 2, mitochondrial/MT-ND1; complex I-dependent respiration, Seahorse XF96; HCT-116; 3000 µM, 24 h; relative to: control): 83.1 ± 5.77%
